Results collected from several papers.
Each line is one published result; not all experiments were run side by side. Numbers after ± are the reported error.
rep nsp13 helicase: Replicase polyprotein 1ab, nsp13 helicase (rep, Severe acute respiratory syndrome coronavirus 2, UniProt P0DTD1)
rep methyltransferase: Replicase polyprotein 1ab, methyltransferase (rep, Severe acute respiratory syndrome coronavirus 2, UniProt P0DTD1)
rep papain-like protease: Replicase polyprotein 1ab, papain-like protease (rep, Severe acute respiratory syndrome coronavirus 2, UniProt P0DTD1)
rep main protease: Replicase polyprotein 1ab, main protease (rep, Severe acute respiratory syndrome coronavirus 2, UniProt P0DTD1)
rep nsp14: Replicase polyprotein 1ab, nsp14 (rep, Severe acute respiratory syndrome coronavirus 2, UniProt P0DTD1)

With `Cc1ccc(C(=O)/C=C/c2cc(Br)cc(Br)c2O)o1` the IC50 was 5 µM (rep nsp13 helicase; helicase ATPase activity, inhibitor, Kinase-Glo luminescence; 60 min, with: 2.5 µM ATP).
With `CC1CC(c2ccc(C(=O)O)cc2)=NN1c1ccc(C#N)cc1` (stereo not drawn) the IC50 was 39.8 µM (rep methyltransferase; enzyme activity, inhibitor).
`O=[N+]([O-])c1cc(O)c(O)c([N+](=O)[O-])c1` has an IC50 of 12.2 µM (rep methyltransferase; enzyme activity, inhibitor).
For `CCC(C(=O)Nc1ccccc1C)n1cccc2nc(S(=O)(=O)Cc3ccc(F)cc3)nc1-2` (stereo not drawn), the IC50 was 4.82 µM (rep papain-like protease; enzyme activity, inhibitor).
The IC50 of `CC(=O)Oc1ccccc1C(=O)Nc1ncc([N+](=O)[O-])s1` is reported as > 100 µM (rep methyltransferase; enzyme activity, inhibitor).
`CCCCCCCCCCCCCCCC(=O)OCC(O)CO` (stereo not drawn) gave an IC50 of 29.2 ± 1.24 µM (rep main protease; enzyme activity, inhibitor; with: fluorogenic substrate).
For `Z-FA-FMK`, the IC50 was 62.4 µM (rep main protease; Gaussia luciferase reporter).
`Cc1ccccc1NC(=O)C(C)n1c(SCc2ccc(F)cc2)nc2cccnc21` (stereo not drawn) has an IC50 of > 20 µM (rep papain-like protease; enzyme activity, inhibitor).
For `Cl.Cl.Cl.Cl.Cl.Cl.N.N.N.N.N.N.N.N.N.N.N.N.N.N.[O-2].[O-2].[Ru+3].[Ru+3].[Ru+4]`, the IC50 was 5.9 µM (rep methyltransferase; enzyme activity, inhibitor).
For `colistin sulfate`, the IC50 was 2.94 ± 0.54 µM (rep papain-like protease; PLpro activity, inhibitor; 30 min, 37 °C, with: substrate 27 µM).
`CCOc1ccc(NC(=O)CN(C)S(=O)(=O)c2ccc(-c3ccc(=O)[nH]n3)s2)cc1` has an IC50 of > 150 µM (rep nsp13 helicase; helicase ATPase activity, inhibitor, Kinase-Glo luminescence).
`CCOC(=O)c1c(NC(=O)c2cc3ccccc3o2)sc(C)c1-c1ccccc1` gave an IC50 of 97.9 µM (Replicase polyprotein 1ab, nsp14 N7-methyltransferase (rep, Severe acute respiratory syndrome coronavirus 2, UniProt P0DTD1); N7-methyltransferase activity, inhibitor, Py-FLINT).
For `Cc1cc(Nc2ncc(Cl)c(Nc3ccccc3S(=O)(=O)C(C)C)n2)c(OC(C)C)cc1C1CCNCC1`, the IC50 was 106 µM (rep papain-like protease; inhibitor).
`O=C(Nc1ncc([N+](=O)[O-])s1)c1ccccc1O` gave an IC50 of 98 µM (rep methyltransferase; enzyme activity, inhibitor).
`COc1ccc2c(c1)n(C(C)C)c[n+]2C(C)C.[Cl][Ag]` gave an IC50 of > 50 µM (rep main protease; enzyme activity, inhibitor).
The IC50 of `Cc1nn(-c2ccc(Cl)cc2)c2c1C(c1ccc(Cl)cc1Cl)C(C#N)=C(N)O2` (stereo not drawn) is reported as 1.83 µM (rep main protease; 3CL protease activity).
The IC50 of `COc1ccccc1CNC(=O)c1c(C)c(S(=O)(=O)N2CCC(C)CC2)c(C)n1C` is reported as > 6.25 µM (rep nsp14; inhibitor).
`Cc1cc(SCc2sc(-c3ccc(C(F)(F)F)c(F)c3)nc2C)ccc1OCC(=O)O` gave an IC50 of 22.3 µM (rep main protease; 3CL protease activity, inhibitor).
`Oc1cc(O)cc(/C=C/c2ccc(O)c(O)c2)c1` gave an IC50 of 27.5 µM (rep methyltransferase; enzyme activity, inhibitor).
The IC50 of `CCC(C(=O)Nc1cc(NC2CCNC2)ccc1C)n1cc(Cl)cc2nc(SCc3ccc(F)cc3)nc1-2` (stereo not drawn) is reported as 0.074 µM (rep papain-like protease; enzyme activity, inhibitor).
With `Nc1ncnc2c([C@@H]3N[C@H](CO)[C@@H](O)[C@H]3O)c[nH]c12` the antigen-positive cells was 40.6% (Zaire ebolavirus; antibody staining; human macrophages; 0.4 µM).
The IC50 of `COc1ccccc1CNC(=O)c1cc(S(=O)(=O)N2CCC(C(F)F)CC2)c(C)n1C` is reported as 0.086 µM (rep nsp14; inhibitor).
With `CC(=O)Oc1cc2c(s1)CCN(C(C(=O)C1CC1)c1ccccc1F)C2` (stereo not drawn) the IC50 was 25.8 to 36.6 µM (rep nsp14; inhibitor).
`CCn1ccc(-c2cc(-c3cnn(C)c3)cc([C@@H](C)NC(=O)c3ccccc3CCC(=O)NNC(=O)C34CC(C3)C4)c2)n1` gave an IC50 of > 10 µM (rep papain-like protease; enzyme activity, inhibitor).
For `COc1ncc(-c2ccc3nccc(-c4ccnnc4)c3c2)cc1NS(=O)(=O)c1ccc(F)cc1F`, the IC50 was 5.5 to 55 µM (rep nsp14; methyltransferase activity, inhibitor, RapidFire MS, item: SAH).
For `N#Cc1ccccc1-c1cc(-c2ccccn2)cn(-c2ccccc2)c1=O`, the IC50 was 100 to 250 µM (rep main protease; enzyme activity, inhibitor, FRET).
For `Nc1nc(OCc2cc(Br)cs2)c2[nH]cnc2n1`, the IC50 was > 100 µM (rep methyltransferase; enzyme activity, inhibitor).
With `CCC(C(=O)Nc1cc(NC2COC2)ccc1C)n1cccc2nc(SCc3ccc(F)cc3)nc1-2` (stereo not drawn) the IC50 was 0.342 µM (rep papain-like protease; enzyme activity, inhibitor).
`CC[C@H](C)[C@H](NC(=O)[C@H](CC(C)C)NC(=O)[C@H](Cc1c[nH]c2ccccc12)NC(=O)[C@H](CCC(N)=O)NC(=O)[C@@H](NC(=O)[C@H](Cc1ccccc1)NC(=O)[C@H](C)NC(=O)[C@H](CCCCNC(=O)COCCOCCNC(=O)COCCOCCNC(=O)CC[C@H](NC(=O)CCCCCCCCCCCCCCCCCCC(=O)O)C(=O)O)NC(=O)[C@H](CCC(N)=O)NC(=O)[C@H](C)NC(=O)[C@@H](NC(=O)[C@H](CCCCN)NC(=O)[C@H](CC(=O)O)NC(=O)[C@H](CC(C)C)NC(=O)C(C)(C)NC(=O)[C@@H](NC(=O)[C@H](CO)NC(=O)[C@H](Cc1ccc(O)cc1)NC(=O)[C@H](CC(=O)O)NC(=O)[C@H](CO)NC(=O)[C@@H](NC(=O)[C@H](Cc1ccccc1)NC(=O)[C@@H](NC(=O)CNC(=O)[C@H](CCC(=O)O)NC(=O)C(C)(C)NC(=O)[C@@H](N)Cc1ccc(O)cc1)[C@@H](C)O)[C@@H](C)O)[C@@H](C)CC)[C@@H](C)CC)C(C)C)C(=O)N[C@@H](C)C(=O)NCC(=O)NCC(=O)N1CCC[C@H]1C(=O)N[C@@H](CO)C(=O)N[C@@H](CO)C(=O)NCC(=O)N[C@@H](C)C(=O)N1CCC[C@H]1C(=O)N1CCC[C@H]1C(=O)N1CCC[C@H]1C(=O)N[C@@H](CO)C(N)=O`: “serious adverse events” 0% (healthy subjects; 4.5 mg, multiple ascending dose).
For `CCCCn1c(NS(=O)(=O)c2ccc(C)cc2)c(S(=O)(=O)c2ccccc2)c2nc3ccccc3nc21`, the IC50 was 3 µM (rep nsp13 helicase; helicase ATPase activity, inhibitor, Kinase-Glo luminescence; 60 min, with: 2.5 µM ATP).
With `CCn1c[n+](CC)c2ccccc21.[Cl][Ag]` the IC50 was > 50 µM (rep main protease; enzyme activity, inhibitor).
The IC50 of `COc1cc(/C=C/C(=O)Nc2nc3ccc(S(=O)(=O)N(C)C)cc3s2)cc(OC)c1OC` is reported as 33 µM (rep nsp13 helicase; helicase ATPase activity, inhibitor, Kinase-Glo luminescence).
`verteporfin` gave an IC50 of 22.9 ± 9.32 µM (rep main protease; enzyme activity, inhibitor; SARS-CoV-2).
`O=c1cc(-c2ccc(O)c(O)c2)oc2cc(O)cc(O)c12` has an IC50 of 126 µM (rep methyltransferase; enzyme activity, inhibitor).
`CCn1c[n+](CC)c2ccc(OC)cc21.[Ag][I]` has an IC50 of > 50 µM (rep main protease; enzyme activity, inhibitor).
`NCCOc1cc(C(=O)Nc2cc(OCCN)c3ccccc3n2)nc(C(=O)Nc2cc(OCCN)c3ccccc3n2)c1` has an IC50 of < 10 µM (rep methyltransferase; enzyme activity, inhibitor; pH 7.5).
With `O=C1NC(=O)C(=Cc2ccc(-c3cc([N+](=O)[O-])ccc3O)o2)C(=O)N1` the IC50 was 10 µM (rep nsp13 helicase; helicase ATPase activity, inhibitor, Kinase-Glo luminescence; 60 min, with: 2.5 µM ATP).
`O=c1cc(-c2ccc(O)cc2)oc2cc(O)cc(O)c12` gave an IC50 of 38.8 ± 1.65 µM (rep main protease; enzyme activity, inhibitor; with: fluorogenic substrate).
`CCCCOc1ccc(-c2cc(C(F)(F)F)c(C#N)c(SCC(=O)O)n2)cc1` has an IC50 of 24 µM (rep nsp13 helicase; helicase ATPase activity, inhibitor, Kinase-Glo luminescence; 60 min, with: 2.5 µM ATP).
`COc1cc2c(cc1O)CCN[C@]21CS[C@@H]2c3c(OC(C)=O)c(C)c4c(c3[C@H](COC1=O)N1[C@@H]2[C@H]2c3c(cc(C)c(OC)c3O)C[C@@H]([C@@H]1C#N)N2C)OCO4` gave an IC50 of 0.028 µM (Replicase polyprotein 1ab, nsp12 RdRp (rep, Severe acute respiratory syndrome coronavirus 2, UniProt P0DTD1); RdRp-dependent reporter gene, GLuc reporter; HEK293T; 24 h).
The IC50 of `CC(=O)c1c(O)c(C)c(O)c(Cc2c(O)c3c(c(C(=O)/C=C/c4ccccc4)c2O)OC(C)(C)C=C3)c1O` is reported as 13.9 µM (rep methyltransferase; enzyme activity, inhibitor).
With `O=C(CSc1nc2ccsc2c(=O)n1CC1CCC(C(=O)O)CC1)c1ccc(Cl)cc1` (stereo not drawn) the IC50 was > 150 µM (rep nsp13 helicase; helicase ATPase activity, inhibitor, Kinase-Glo luminescence).
`CCCC(C(=O)Nc1cc(NC2CCNC2)ccc1C)n1cccc2nc(SCc3ccc(F)cc3)nc1-2` (stereo not drawn) has an IC50 of 1.36 µM (rep papain-like protease; enzyme activity, inhibitor).
For `Cc1ccc(C)n1-c1sc2c(c1C(=O)O)CCCC2`, the IC50 was > 150 µM (rep nsp13 helicase; helicase ATPase activity, inhibitor, Kinase-Glo luminescence).
For `CCC(C(=O)Nc1cnn(C)c1)n1cccc2nc(SCc3ccc(F)cc3)nc1-2` (stereo not drawn), the IC50 was > 20 µM (rep papain-like protease; enzyme activity, inhibitor).

A few entries again:
`CCOC(=O)c1c(NC(=O)c2cc3ccccc3o2)sc(C)c1-c1ccccc1` gave an IC50 of 97.9 µM (Replicase polyprotein 1ab, nsp14 N7-methyltransferase (rep, Severe acute respiratory syndrome coronavirus 2, UniProt P0DTD1); N7-methyltransferase activity, inhibitor, Py-FLINT).
For `Cc1cc(Nc2ncc(Cl)c(Nc3ccccc3S(=O)(=O)C(C)C)n2)c(OC(C)C)cc1C1CCNCC1`, the IC50 was 106 µM (rep papain-like protease; inhibitor).
`O=C(Nc1ncc([N+](=O)[O-])s1)c1ccccc1O` gave an IC50 of 98 µM (rep methyltransferase; enzyme activity, inhibitor).
